Measurements pooled from the literature.
Each line is one published result; not all experiments were run side by side. ± gives the spread as reported.
GSK3B: Glycogen synthase kinase-3 beta (GSK3B, Homo sapiens, UniProt P49841)
UniProt P49841, sequence (whole entry, looked up): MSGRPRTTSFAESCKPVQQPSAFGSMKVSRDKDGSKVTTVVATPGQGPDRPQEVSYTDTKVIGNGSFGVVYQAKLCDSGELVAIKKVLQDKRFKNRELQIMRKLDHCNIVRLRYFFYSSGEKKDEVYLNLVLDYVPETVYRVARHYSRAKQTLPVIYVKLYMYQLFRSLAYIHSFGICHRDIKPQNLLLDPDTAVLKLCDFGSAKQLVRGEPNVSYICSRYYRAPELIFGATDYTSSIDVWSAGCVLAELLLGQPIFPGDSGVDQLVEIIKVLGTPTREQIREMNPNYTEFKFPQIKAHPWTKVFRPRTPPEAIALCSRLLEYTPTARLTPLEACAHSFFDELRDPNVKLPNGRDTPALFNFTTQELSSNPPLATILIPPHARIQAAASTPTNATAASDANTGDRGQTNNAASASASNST
UCHL1: Ubiquitin carboxyl-terminal hydrolase isozyme L1 (UCHL1, Homo sapiens, UniProt P09936)
UniProt P09936, sequence (whole entry, looked up): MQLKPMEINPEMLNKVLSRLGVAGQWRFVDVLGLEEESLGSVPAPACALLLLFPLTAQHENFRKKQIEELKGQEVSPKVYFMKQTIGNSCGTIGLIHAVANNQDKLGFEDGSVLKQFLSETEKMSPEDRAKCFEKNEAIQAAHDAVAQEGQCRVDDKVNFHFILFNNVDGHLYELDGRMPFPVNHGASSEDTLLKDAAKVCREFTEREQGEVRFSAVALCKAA
GSK3B with Nav1.6: Glycogen synthase kinase-3 beta, with Nav1.6 (GSK3B, Homo sapiens, UniProt P49841)

Structure (SMILES) | target | assay | test system | setting | endpoint | result
COc1cc(/C=C/C(=O)C(=Cc2ccccc2)C(=O)/C=C/c2ccc(O)c(OC)c2)ccc1O | GSK3B |  |  | concentration not given, cell-based | activity | inactive
COc1ccc(-c2csc(NC(=O)CCl)n2)c(O)c1 | UCHL1 | covalent, intact protein LC-MS |  | 12.5 µM | labelling | 10.1%
COc1ccc(F)cc1C(=O)NCc1ccc(-c2nn([C@@H](C)C(F)(F)F)c(N)c2C(N)=O)cc1 | GSK3B | target engagement, competitive chemoproteomics | human PBMCs | 10 µM | inhibition | 10%
CNc1cccc2cc(C(=O)Nc3ccc(C(=O)O)cc3)c(=O)[nH]c12 | GSK3B | kinase activity, inhibitor |  | 10 µM | inhibition | 3.1%
O=C(NC1CCC1)c1ccc2nc(-c3cccc(NS(=O)(=O)NCCN4CCCCC4)c3)cn2c1 | GSK3B | enzyme activity |  | 10 µM | remaining activity | 64%
Cn1sc(=O)n(Cc2ccccc2)c1=O | GSK3B |  | yeast expressing human GSK-3 | 20 mM, 37 °C | inhibition zone diameter | 18 ± 1.66 mm
CCOC(=O)C(=NNc1ccc(O)cc1)C(C)=O | GSK3B with Nav1.6 | protein complex assembly, split-luciferase complementation | HEK293 with Nav1.6 co-transfected | 0.5 to 150 µM | maximal inhibition | 13.1%
Nc1nc(NC2CCCCC2)sc1C(=O)c1ccccc1 | GSK3B | enzyme activity, inhibitor |  | 10 µM | remaining activity | 1%
Cl.OC(CNCC(O)C1CCc2cc(F)ccc2O1)C1CCc2cc(F)ccc2O1 (stereo not drawn) | GSK3B | enzyme activity, inhibitor, ADP-Glo |  | 100 µM | inhibition | no inhibition
CCOC(=O)c1c(NC(=O)CNC(C)C)sc2c1CCCCC2 | GSK3B with Nav1.6 | protein complex assembly, split-luciferase complementation | HEK293 with Nav1.6 co-transfected | 0.5 to 150 µM | maximal inhibition | 67.2%
Nc1nc(Nc2ccccc2)sc1C(=O)c1c(F)cccc1F | GSK3B | enzyme activity, inhibitor |  | 10 µM | remaining activity | 4%
COC(=O)C1=C(C)NC(C)=C(C(=O)OC)C1c1ccccc1[N+](=O)[O-] | GSK3B | inhibitor, ADP-Glo kinase |  |  | Hill slope | -1.27
COc1cc(/C=C/c2cc(/C=C/c3ccc(O)c(OC)c3)n(-c3ccc(Cl)cc3Cl)n2)ccc1O | GSK3B |  |  | concentration not given, cell-based | activity | inactive
O=C1Nc2ccccc2C12CC2c1ccccn1 (stereo not drawn) | GSK3B |  |  | concentration not given | activity | active
COc1cc(/C=C2\CC/C(=C\c3ccc(O)c(OC)c3)C2=O)ccc1O | GSK3B |  |  | concentration not given, cell-based | activity | inactive
COc1cc2c(cc1OC)C(c1ccccc1)N(C(=O)CCl)CC2 (stereo not drawn) | UCHL1 | covalent, intact protein LC-MS |  | 12.5 µM | labelling | 8.14%
NC(=O)C(c1ccccc1)(c1ccccc1)[C@@H]1CCN(CCc2ccc3c(c2)CCO3)C1 | GSK3B | enzyme activity, inhibitor, ADP-Glo |  | 100 µM | inhibition | no inhibition
O=C1NC(=O)/C(=C/c2ccc(-c3ccc(F)cc3O)o2)S1 | GSK3B | enzyme activity |  | 10 µM | remaining activity | 10%

For quick reference, copied from above:
Structure (SMILES) | target | assay | test system | setting | endpoint | result
Cl.OC(CNCC(O)C1CCc2cc(F)ccc2O1)C1CCc2cc(F)ccc2O1 (stereo not drawn) | GSK3B | enzyme activity, inhibitor, ADP-Glo |  | 100 µM | inhibition | no inhibition
CCOC(=O)c1c(NC(=O)CNC(C)C)sc2c1CCCCC2 | GSK3B with Nav1.6 | protein complex assembly, split-luciferase complementation | HEK293 with Nav1.6 co-transfected | 0.5 to 150 µM | maximal inhibition | 67.2%
